Results gathered from unrelated publications.
“And” joins repeats or separate records; there may be more than shown. Numbers after ± are the reported error.

Structure (SMILES) = CC(=O)OC[C@H]1O[C@@H](Oc2cc(O)cc3cc4oc(C)cc(=O)c4c(O)c23)[C@H](O)[C@@H](O)[C@@H]1O; target or system = HepaRG co-cultured with HK-2; assay = MTT; setting = 66.67 µM, 48 h; scale = reference: untreated control; measurement = cell viability; result = 80.1 ± 22%
Structure (SMILES) = CC(C)C[C@H](NC(=O)[C@H](CCCNC(=N)N)NC(=O)CNC(=O)CNC(=O)CNC(=O)c1ccc2c(c1)C(=O)OC21c2ccc(O)cc2Oc2cc(O)ccc21)C(=O)N[C@@H](CO)C(=O)N[C@@H](CO)C(=O)N[C@H](C(=O)N[C@@H](CC(=O)O)C(=O)N[C@@H](CO)C(=O)N[C@@H](CC(=O)O)C(=O)N[C@@H](CC(C)C)C(=O)N[C@@H](CO)C(=O)NCC(=O)N[C@@H](CS)C(N)=O)C(C)C; target or system = hCMEC/D3 monolayers; assay = BBB permeability, Transwell, item: CF-labelled compound; test system = EGM-2 medium; setting = concentration not given, 3 h, apical to basal; scale = reference: fluorescence added apically; measurement = transport ratio; result = 10.8%
Structure (SMILES) = C[C@H]1CN(c2n[nH]c3nc(N[C@H]4CC[C@H](NS(=O)(=O)CCC(F)(F)F)CC4)ncc23)CCO1; target or system = Small ribosomal subunit protein uS3 (Homo sapiens, UniProt P23396); assay = Kinobeads competition, item: RPS3; setting = 0.032 µM, unit not given; scale = reference: vehicle; measurement = remaining binding; result = 1.04
Structure (SMILES) = O=C(Nc1cccc(OS(=O)(=O)c2ccc(Cl)cc2)c1)c1ccc2ncccc2c1; target or system = HEK293T; assay = MTT; setting = 100 µM, 24 h; measurement = viability; result = 82.3 ± 1.09%
Structure (SMILES) = CC[C@H](C)[C@H](NC(=O)[C@H](CC(C)C)NC(=O)[C@@H]1CCCN1C(=O)[C@@H]1CCCN1C(=O)[C@H](CCCCN)NC(=O)[C@H](CO)NC(=O)[C@@H](NC(=O)[C@@H](NC(=O)[C@H](CC(=O)O)NC(=O)[C@H](CC(C)C)NC(=O)[C@H](CCCCN)NC(=O)[C@H](Cc1ccc(O)cc1)NC(=O)[C@H](CCSC)NC(=O)[C@H](CCCCN)NC(=O)[C@@H](N)[C@@H](C)O)C(C)C)C(C)C)C(=O)N[C@@H](CC(N)=O)C(=O)NCC(=O)N[C@@H](CC(C)C)C(=O)N[C@@H](Cc1ccc(O)cc1)C(=O)N[C@H](C(=O)N[C@@H](CC(N)=O)C(=O)N[C@@H](CCCNC(=N)N)C(=O)N[C@H](C(=O)N[C@H](C(=O)N[C@H](C(=O)N[C@@H](CCCCN)C(=O)N[C@@H](C)C(=O)N[C@H](C(=O)N[C@@H](C)C(=O)N[C@H](C(=O)N[C@@H](CCCNC(=N)N)C(=O)N[C@@H](Cc1c[nH]cn1)C(=O)N[C@@H](CO)C(=O)N[C@@H](CCCCN)C(=O)N[C@@H](CCCCN)C(=O)N[C@@H](Cc1c[nH]cn1)C(=O)N[C@@H](Cc1ccccc1)C(=O)O)C(C)C)[C@@H](C)O)[C@@H](C)CC)C(C)C)[C@@H](C)O)[C@@H](C)O; target or system = HaCaT; assay = cell viability, MTT; setting = 24 h; measurement = CC50; result = 119 µM
Structure (SMILES) = O=C1c2ccccc2C(=O)c2ccccc21; target or system = HK-2 co-cultured with HepaRG; assay = MTT; setting = 266.67 µM, 48 h; scale = reference: untreated control; measurement = viability; result = 20.2 ± 2.88%
Structure (SMILES) = Cn1cc2cc(C(F)(F)c3nnc4ccc(-c5cnn(C6CC6)c5)nn34)c(F)cc2n1; target or system = MKN-45; assay = CCK-8; setting = 0.05 µM, 72 h; scale = reference: untreated; measurement = viability; result = 6.8% and 6.44% and 5.85%
Structure (SMILES) = CCN(CC)CCCC[C@H](NC(=O)[C@H](CC(C)C)NC(=O)[C@H](C)NC(=O)[C@H](Cc1ccccc1)NC(=O)c1ccc(C(C)(C)C)cc1)C(=O)N[C@@H](CO)C(=O)OC; target or system = PC-3; assay = CellTiter-Glo; setting = up to 100 µM, 48 h; measurement = cytotoxicity; result = not toxic
Structure (SMILES) = Oc1ccc(C(c2ccc(O)cc2)(C(F)(F)F)C(F)(F)F)cc1; target or system = HepG2 spheroids, dissociated; assay = annexin V-FITC/PI flow cytometry; setting = 40 µM, 24 h; measurement = viable cells; result = 71.9 ± 8.77%
Structure (SMILES) = c1ccc2c(c1)ccc1c3ccccc3ccc21; target or system = MCF7 AREc32 cells; assay = cell confluency, IncuCyte imaging; setting = 24 h, nominal concentration; measurement = IC10; result = > 6.88 µM
Structure (SMILES) = O=C(O)C(F)(F)C(F)(F)C(F)(F)C(F)(F)C(F)(F)C(F)(F)C(F)(F)C(F)(F)C(F)(F)C(F)(F)F; target or system = hTERT-RPTEC-OAT1; setting = concentration not given, Transwell, apical-to-basolateral addition; measurement = LDH release; result = 10.1 mU/mL and 15.1 mU/mL and 11.1 mU/mL and 20.5 mU/mL
Structure (SMILES) = CO[C@H]1C[C@@H]2CC[C@@H](C)[C@@](O)(O2)C(=O)C(=O)N2CCCC[C@H]2C(=O)O[C@H]([C@H](C)C[C@@H]2CC[C@@H](OC(=O)NCCOCCOCCOCCOCCOCCOCCOCCOCCC(=O)N3CCc4cc(Cn5nc(-c6ccc7oc(N)nc7c6)c6c(N)ncnc65)ccc4C3)[C@H](OC)C2)C[C@@H](O)[C@H](C)/C=C(\C)[C@@H](O)[C@@H](OC)C(=O)[C@H](C)C[C@H](C)/C=C/C=C/C=C/1C; assay = phase 1 dose escalation; test system = advanced solid tumour patients; setting = intravenous, 10 mg weekly, any grade; measurement = deaths due to TEAEs; result = 0%
Structure (SMILES) = C[C@@H]1O[C@@H](O[C@H]2C[C@@H](O)[C@]3(CO)[C@H]4[C@H](O)C[C@]5(C)[C@@H](C6=CC(=O)OC6)CC[C@]5(O)[C@@H]4CC[C@]3(O)C2)[C@H](O)[C@H](O)[C@H]1O; target or system = HEK293T; assay = ATP content; setting = 25 µM, 6 h; measurement = toxicity; result = not toxic
Structure (SMILES) = N#C[C@H](C[C@@H]1CCCNC1=O)NC(=O)[C@H](CC1CC1)NC(=O)c1cc2cccc(Cl)c2[nH]1; target or system = cryopreserved human hepatocytes; assay = item: CYP2B6; setting = 10 µM, 72 h; scale = reference: vehicle; measurement = mRNA level; result = ≤ 8.1 fold
Structure (SMILES) = Cc1cc2c(c(O)c1O)C(=O)c1c(O)cc(O)cc1C2=O; target or system = HepaRG co-cultured with HK-2; assay = MTT; setting = 16.67 µM, 24 h; scale = reference: untreated control; measurement = cell viability; result = 61.2 ± 8.8%
Structure (SMILES) = CC[C@H](C)[C@H](N)C(=O)N[C@@H](CCCNC(=N)N)C(=O)N[C@H](C(=O)N[C@@H](Cc1c[nH]c2ccccc12)C(=O)N[C@@H](Cc1ccccc1)C(=O)N[C@H](C(=O)N[C@@H](CCCCN)C(=O)N[C@H](C(=O)N[C@@H](CCCNC(=N)N)C(=O)N[C@@H](CCCCN)C(=O)N[C@@H](Cc1c[nH]c2ccccc12)C(=O)N[C@@H](CCCCN)C(=O)N[C@@H](C)C(=O)N[C@H](C(=O)N[C@@H](Cc1ccc(O)cc1)C(=O)N[C@@H](Cc1c[nH]cn1)C(=O)N[C@H](C(N)=O)[C@@H](C)O)[C@@H](C)CC)C(C)C)[C@@H](C)CC)C(C)C; target or system = rat erythrocytes; setting = 200 µM, 60 min, 37 °C; measurement = hemolysis; result = 29.9 ± 11.6%
Structure (SMILES) = CC[C@H](C)[C@H](NC(=O)[C@H](CCCNC(=N)N)NC(=O)[C@@H](N)C(C)C)C(=O)N[C@@H](CO)C(=O)NCC(=O)N[C@@H](CCCNC(=N)N)C(=O)NCC(=O)N[C@@H](Cc1ccccc1)C(=O)N[C@@H](CS)C(=O)N[C@H](C(=O)N[C@@H](CCCCN)C(=O)N[C@@H](CCSC)C(=O)N[C@@H](Cc1ccccc1)C(=O)N[C@@H](Cc1ccc(O)cc1)C(=O)N[C@H](C(=O)N[C@@H](CCCCN)C(=O)N1CCC[C@H]1C(=O)N[C@H](C(=O)N[C@@H](CCCCN)C(=O)N[C@@H](Cc1ccc(O)cc1)C(=O)N[C@@H](CCCCN)C(=O)NCC(=O)N1CCC[C@H]1C(=O)N[C@H](C(=O)N[C@@H](CCCCN)C(=O)N[C@@H](CCCCN)C(=O)NCC(=O)N[C@@H](CCC(=O)O)C(=O)N[C@@H](CCCCN)C(=O)N[C@@H](CC(C)C)C(=O)NCC(=O)N[C@H](C(=O)N[C@@H](CC(C)C)C(=O)N[C@@H](CC(C)C)C(=O)N1CCC[C@H]1C(=O)N[C@@H](CC(C)C)C(=O)N[C@@H](CCC(N)=O)C(=O)N[C@@H](CCCCN)C(=O)N[C@H](C(=O)N[C@@H](Cc1ccc(O)cc1)C(=O)O)C(C)C)[C@@H](C)O)[C@@H](C)CC)[C@@H](C)CC)[C@@H](C)CC)C(C)C; target or system = HaCaT; assay = cell viability, MTT; setting = 24 h; measurement = CC50; result = 96.8 µM
Structure (SMILES) = Oc1ccc(C2(c3ccc(O)cc3)c3ccccc3-c3ccccc32)cc1; target or system = HepG2 spheroids; assay = annexin V-FITC/PI flow cytometry; setting = 1 µM, 96 h; measurement = late apoptotic cells; result = 35.7 ± 0.7%
Structure (SMILES) = CCCCCCCCCC(=O)N[C@@H](Cc1c[nH]c2ccccc12)C(=O)N[C@H](CC(N)=O)C(=O)N[C@@H](CC(=O)O)C(=O)N[C@@H]1C(=O)NCC(=O)N[C@@H](CCCNC(=O)CCC(=O)N2Cc3ccccc3-c3c(nnn3CCC[C@H](NC(=O)CCCCC[N+]3=C(C=CC4=CC(=CC=C5N(C)c6ccccc6C5(C)C)CCC4)C(C)(C)c4ccccc43)C(=O)NCCCCNC(=O)CCC(=O)N3Cc4ccccc4-c4c(nnn4CCOCCOCCOCCNC(=O)CN4CCN(CC(=O)NCCNC(=O)c5cccc(O)c5O)CCN(CC(=O)NCCNC(=O)c5cccc(O)c5O)CCN(CC(=O)NCCNC(=O)c5cccc(O)c5O)CC4)-c4ccccc43)-c3ccccc32)C(=O)N[C@@H](CC(=O)O)C(=O)N[C@H](C)C(=O)N[C@@H](CC(=O)O)C(=O)NCC(=O)N[C@H](CO)C(=O)N[C@@H]([C@H](C)CC(=O)O)C(=O)N[C@@H](CC(=O)c2ccccc2N)C(=O)O[C@@H]1C; target or system = L929; assay = cytotoxicity, WST-1; test system = mouse cells; setting = 5 days, 5% FBS DMEM; measurement = EC50; result = 64 µM
Structure (SMILES) = O=c1ccc2ccccc2o1; target or system = HepaRG 3D spheroids; assay = nuclear DNA structure, high-content screening; setting = concentration not given, 168 h, 10% FBS medium; measurement = probability of response; result = 63%
Structure (SMILES) = CN(CCC(Oc1ccc(C(F)(F)F)cc1)c1ccccc1)N=O (stereo not drawn); target or system = TK6 expressing CYP2B6; assay = micronucleus induction; setting = 24 h, without S9; measurement = LOAEL; result = < 1 µM
Structure (SMILES) = O=C(O)C(F)(F)C(F)(F)C(F)(F)C(F)(F)C(F)(F)C(F)(F)C(F)(F)C(F)(F)C(F)(F)F; target or system = hTERT-RPTEC-OAT1; setting = concentration not given, 96-well plate; measurement = LDH release; result = 5.68 mU/mL and 6.87 mU/mL and 4.77 mU/mL and 5.96 mU/mL
Structure (SMILES) = COc1ccc2c(c1OC)C(=O)c1c(cc(C)c(O)c1OC)C2=O; target or system = HK-2 co-cultured with HepaRG; assay = MTT; setting = 133.33 µM, 48 h; scale = reference: untreated control; measurement = cell viability; result = 39 ± 1.67%
Structure (SMILES) = CC[C@H](C)[C@H](NC(=O)CN)C(=O)N[C@@H](CC(C)C)C(=O)N[C@@H](CC(=O)O)C(=O)N[C@@H](C)C(=O)N[C@H](C(=O)N[C@@H](CC(C)C)C(=O)N[C@@H](CC(=O)O)C(=O)N[C@@H](C)C(=O)N[C@H](C(=O)N[C@@H](CCCCN)C(=O)N[C@@H](C)C(=O)N[C@H](C(=O)N[C@@H](C)C(=O)N[C@@H](CCCCN)C(=O)N[C@@H](C)C(=O)N[C@H](C(=O)N[C@@H](CCCCN)C(=O)N[C@@H](C)C(=O)N[C@@H](CCCCN)C(=O)N[C@@H](C)C(=O)NCC(N)=O)[C@@H](C)CC)[C@@H](C)CC)[C@@H](C)CC)[C@@H](C)CC; target or system = HEK293; setting = 256 µM, 24 h; measurement = viability; result = 40%

For quick reference, copied from above:
Structure (SMILES) = CO[C@H]1C[C@@H]2CC[C@@H](C)[C@@](O)(O2)C(=O)C(=O)N2CCCC[C@H]2C(=O)O[C@H]([C@H](C)C[C@@H]2CC[C@@H](OC(=O)NCCOCCOCCOCCOCCOCCOCCOCCOCCC(=O)N3CCc4cc(Cn5nc(-c6ccc7oc(N)nc7c6)c6c(N)ncnc65)ccc4C3)[C@H](OC)C2)C[C@@H](O)[C@H](C)/C=C(\C)[C@@H](O)[C@@H](OC)C(=O)[C@H](C)C[C@H](C)/C=C/C=C/C=C/1C; assay = phase 1 dose escalation; test system = advanced solid tumour patients; setting = intravenous, 10 mg weekly, any grade; measurement = deaths due to TEAEs; result = 0%
Structure (SMILES) = C[C@@H]1O[C@@H](O[C@H]2C[C@@H](O)[C@]3(CO)[C@H]4[C@H](O)C[C@]5(C)[C@@H](C6=CC(=O)OC6)CC[C@]5(O)[C@@H]4CC[C@]3(O)C2)[C@H](O)[C@H](O)[C@H]1O; target or system = HEK293T; assay = ATP content; setting = 25 µM, 6 h; measurement = toxicity; result = not toxic
